Measured values of several laboratories.
Compare with care: the assays were run in different laboratories. ± gives the spread as reported.

C/C(=N\NC(=O)c1cccc(S(=O)(=O)N2CCOCC2)c1)c1cc(Cl)ccc1O gave an EC50 of 56.2 nM (NCI-H510A; cell growth or viability, resazurin; 10 days).
For CSCc1ccccn1.F[P-](F)(F)(F)(F)F.F[P-](F)(F)(F)(F)F.[Ru+2].c1ccc(-c2ccccn2)nc1.c1ccc(-c2ccnc3c2ccc2c(-c4ccccc4)ccnc23)cc1, the EC50 was 59000 nM (A549 monolayer; cell growth, SRB; dark).
For COc1ccc([C@@H]2C3CCCN3[C@@]3(c4ccccc4-c4nc5ccccc5nc43)[C@H]2C(=O)c2nc3ccccc3[nH]2)cc1 (stereo partly shown), the EC50 was 450 ± 16 nM (WI-38; cytotoxicity, MTT; 72 h).
With FC(F)(F)c1ccnc(-c2cc(C(F)(F)F)ccn2)c1.FC(F)(F)c1ccnc(-c2cc(C(F)(F)F)ccn2)c1.[Cl-].[Cl-].[Ru+2].c1csc(-c2ccc(-c3ccc(-c4ccc(-c5nc6c7cccnc7c7ncccc7c6[nH]5)s4)s3)s2)c1 the EC50 was 35 nM (SK-MEL-28; cell viability, resazurin; visible light, hypoxia 1% O2, lowest over replicates).
C(=C/c1ccccc1)/c1ccccc1 has an EC50 of 8000 nM (U-937; apoptosis, flow cytometry, measured: caspase-3 activity; 24 h, 50% apoptosis induction).
CN(Cc1ccc(/C=C/C(=O)NO)cc1)CC12CC3CC(CC(C3)C1)C2 has an EC50 of 100 nM (PNC; histone H3K9 acetylation, measured: H3K9ac).
With C=CC(=O)Nc1cc(-c2nn(C3CCN(CCNC(=O)[C@H](C)CCC45CC6CC(CC(C6)C4)C5)CC3)c3ncnc(N)c23)ccc1Oc1ccccc1 the EC50 was 1400 nM (HCC827 GR6; cell proliferation; 3 days).
For CCCCCCCCCCCCCCCC(=O)N[C@@H](CCC(=O)NCCCC[C@H](NC(=O)[C@H](CC(=O)O)NC(=O)[C@H](CO)NC(=O)[C@@H](NC(=O)[C@H](Cc1ccccc1)NC(=O)[C@@H](NC(=O)CNC(=O)[C@H](CCC(N)=O)NC(=O)[C@H](CO)NC(=O)[C@@H](N)Cc1c[nH]cn1)[C@@H](C)O)[C@@H](C)O)C(=O)N[C@@H](CO)C(=O)N[C@@H](CCC(=O)O)C(=O)N[C@@H](Cc1ccc(O)cc1)C(=O)N[C@@H](CC(C)C)C(=O)N[C@@H](CC(=O)O)C(=O)N[C@@H](CO)C(=O)N[C@@H](CCC(=O)O)C(=O)N[C@@H](CCCNC(=N)N)C(=O)N[C@@H](C)C(=O)N[C@@H](CCCNC(=N)N)C(=O)N[C@@H](CC(=O)O)C(=O)N[C@@H](Cc1ccccc1)C(=O)N[C@H](C(=O)N[C@@H](C)C(=O)N[C@@H](Cc1c[nH]c2ccccc12)C(=O)N[C@@H](CC(C)C)C(=O)N[C@@H](CCC(=O)O)C(=O)N[C@@H](C)C(=O)NCC(=O)NCC(=O)O)C(C)C)C(=O)O, the EC50 was 0.083 ± 0.028 nM (primary rat hepatocytes; hepatic glucose output; 120 min, 37 °C, with: 0.1% BSA).
With CC(=O)N[C@@H](CC[S+](C)[Ru-4]123([S+](C)CC[C@H](NC(C)=O)C(=O)O)[n+]4ccc5ccccc5c4Nc4cccc([n+]41)-c1cccc([n+]12)Nc1c2ccccc2cc[n+]13)C(=O)[O-].F[P-](F)(F)(F)(F)F (stereo partly shown) the EC50 was under 1000 nM (A-431 and A549; phototoxicity; green light).
With Cc1ccc2c(n1)c1nc(C)ccc1c1nc3cc4ccccc4cc3nc21.[Ru+2].c1ccc(-c2cccc(-c3ccccn3)n2)nc1.c1ccncc1 the EC50 was over 25000 nM (MCF-10A; cell growth or viability, MTT; dark).
With O=C(CCc1ccc(CNC(C(=O)OC2CCCC2)C2CCCCC2)cn1)NO (stereo not shown) the EC50 was 158 nM (monocytes; global acetylation, flow cytometry; human whole blood; 4 h).
With O=C1NCCN1C[C@H](O)Cn1c2ccc(F)cc2c2cc(F)ccc21 the EC50 was 36900 nM (sample A glioblastoma stem cells; viability; 72 h).
With [Ru+2].c1ccc(-c2ccc3c(n2)c2ncccc2c2nc4cc5ccccc5cc4nc32)nc1.c1ccc(-c2ccc3c(n2)c2ncccc2c2nc4cc5ccccc5cc4nc32)nc1 the EC50 was over 25000 nM (MCF-10A; cell viability, MTT; 1 h, blue light 56 J/cm2).

For quick reference, copied from above:
With FC(F)(F)c1ccnc(-c2cc(C(F)(F)F)ccn2)c1.FC(F)(F)c1ccnc(-c2cc(C(F)(F)F)ccn2)c1.[Cl-].[Cl-].[Ru+2].c1csc(-c2ccc(-c3ccc(-c4ccc(-c5nc6c7cccnc7c7ncccc7c6[nH]5)s4)s3)s2)c1 the EC50 was 35 nM (SK-MEL-28; cell viability, resazurin; visible light, hypoxia 1% O2, lowest over replicates).
C(=C/c1ccccc1)/c1ccccc1 has an EC50 of 8000 nM (U-937; apoptosis, flow cytometry, measured: caspase-3 activity; 24 h, 50% apoptosis induction).
